Published values pooled from the literature.
Protocols differ between the studies behind these lines. ± marks the error that the study gave.
OPRK1: Kappa-type opioid receptor (OPRK1, Homo sapiens, UniProt P41145)
UniProt P41145, sequence (whole entry, looked up): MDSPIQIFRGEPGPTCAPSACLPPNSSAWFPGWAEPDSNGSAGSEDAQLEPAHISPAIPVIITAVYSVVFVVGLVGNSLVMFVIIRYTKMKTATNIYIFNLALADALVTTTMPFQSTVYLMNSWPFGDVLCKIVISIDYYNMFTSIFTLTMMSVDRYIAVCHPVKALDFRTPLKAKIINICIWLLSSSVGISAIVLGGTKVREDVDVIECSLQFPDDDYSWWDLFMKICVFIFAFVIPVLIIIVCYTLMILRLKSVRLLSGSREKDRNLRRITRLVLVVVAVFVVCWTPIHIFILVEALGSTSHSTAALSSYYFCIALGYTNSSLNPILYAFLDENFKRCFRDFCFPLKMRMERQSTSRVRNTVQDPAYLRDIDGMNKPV

SMILES	target or system	test	test system	conditions	scale	quantity	result
CCCCCCCCCCCCCCCC(=O)N[C@@H](CCC(=O)NCCOCCOCCC(=O)NCCOCCOCCC(=O)NCCCC[C@H](NC(=O)[C@H](CC(=O)O)NC(=O)[C@H](CC(C)C)NC(=O)[C@H](Cc1ccc(O)cc1)NC(=O)[C@H](CCCCN)NC(=O)[C@H](CO)NC(=O)[C@H](Cc1ccc(O)cc1)NC(=O)[C@H](CC(=O)O)NC(=O)[C@H](CO)NC(=O)[C@@H](NC(=O)[C@H](Cc1ccccc1)NC(=O)[C@@H](NC(=O)CNC(=O)[C@H](CCC(N)=O)NC(=O)[C@@H](CO)NC(=O)[C@@H](N)Cc1c[nH]cn1)[C@@H](C)O)[C@@H](C)O)C(=O)N[C@@H](CCCNC(=N)N)C(=O)N[C@@H](CCCNC(=N)N)C(=O)N[C@@H](C)C(=O)N[C@@H](CCC(N)=O)C(=O)N[C@@H](CC(=O)O)C(=O)N[C@@H](Cc1ccccc1)C(=O)N[C@H](C(=O)N[C@@H](CCC(N)=O)C(=O)N[C@@H](Cc1c[nH]c2ccccc12)C(=O)N[C@@H](CC(C)C)C(=O)N[C@@H](CC(C)C)C(=O)N[C@@H](CC(N)=O)C(=O)N[C@H](C(=O)NCC(=O)NCC(=O)N1CCC[C@H]1C(=O)N[C@@H](CO)C(=O)N[C@@H](CO)C(=O)NCC(=O)N[C@@H](C)C(=O)N1CCC[C@H]1C(=O)N1CCC[C@H]1C(=O)N1CCC[C@H]1C(=O)N[C@@H](CO)C(N)=O)[C@@H](C)O)C(C)C)C(=O)O		refers to: CK	Sprague-Dawley rat, female	subcutaneous, 500 µg/kg once daily, 14 days		serum enzyme activity	525 ± 343 U/L
Cc1cc(/C=C/C#N)cc(C)c1Nc1nc(Nc2ccc(C#N)cc2)ncc1N	HIV-1	viral replication, single-round infection	RT mutant K103N/P225H			EC50	1.1 ± 0.3 nM
CC(C)C[C@H](NC(=O)[C@H](CO[C@@H]1O[C@H](CO)[C@@H](O[C@@H]2O[C@H](CO)[C@H](O)[C@H](O)[C@H]2O)[C@H](O)[C@H]1O)NC(=O)[C@H](CCCCN)NC(=O)[C@H](CC(C)C)NC(=O)C(C)(C)NC(=O)[C@H](CCCCN)NC(=O)[C@H](CCC(=O)O)NC(=O)[C@H](C)NC(=O)[C@H](CC(C)C)NC(=O)[C@H](CC(N)=O)NC(=O)[C@@H]1CCCN1C(=O)[C@H](CC(C)C)NC(=O)[C@H](Cc1ccccc1)NC(=O)CNC(=O)[C@H](NC(=O)[C@@H](N)Cc1ccc(O)cc1)[C@H](C)O)C(N)=O	OPRK1	ligand displacement, radioligand		pH 7.5, cell membranes		Ki	5.7 nM
O=C(NCc1ccc(F)cc1F)c1cn2c(c(O)c1=O)C(=O)N(CCCCCO)CC2	human immunodeficiency virus 1	single-round vector infection	integrase R263K			EC50	95.7 ± 12.7 nM
CC(C)C[C@H](NC(=O)[C@H](CO[C@@H]1O[C@H](CO)[C@@H](O[C@@H]2O[C@H](CO)[C@H](O)[C@H](O)[C@H]2O)[C@H](O)[C@H]1O)NC(=O)[C@H](CCCCN)NC(=O)[C@H](CC(C)C)NC(=O)[C@H](C)NC(=O)[C@H](CCCCN)NC(=O)[C@H](CCC(=O)O)NC(=O)[C@H](C)NC(=O)[C@H](CC(C)C)NC(=O)[C@H](CC(N)=O)NC(=O)[C@@H]1CCCN1C(=O)[C@H](CC(C)C)NC(=O)[C@H](Cc1ccccc1)NC(=O)CNC(=O)[C@H](NC(=O)[C@@H](N)Cc1ccc(O)cc1)[C@H](C)O)C(N)=O	OPRK1	ligand displacement, radioligand		pH 7.5, cell membranes		Ki	15 nM
CC(C)n1ccn2cc(C(=O)NCc3ccc(F)cc3F)c(=O)c(O)c2c1=O	human immunodeficiency virus 1	single-round vector infection	integrase N155H			EC50	4.3 ± 0.3 nM
Cc1cc(/C=C/C#N)cc(C)c1-n1cnc2cnc(Nc3ccc(C#N)cc3)nc21	HIV-1	viral replication, single-round infection	RT mutant K101P/V179I			EC50	16.6 ± 0.5 nM
CC[C@@H](C)[C@@H](NC(=O)[C@@H](CCCCN)NC(=O)[C@@H](CCCCN)NC(=O)[C@@H](CC(C)C)NC(=O)[C@@H](Cc1c[nH]c2ccccc12)NC(=O)CN)C(=O)NCC(=O)N[C@H](CCCCN)C(=O)N[C@H](CCCCN)C(=O)N[C@@H](C(=O)N[C@H](CCC(=O)O)C(=O)N[C@H](CCCNC(=N)N)C(=O)N[C@@H](C(=O)NCC(=O)N[C@H](CCC(N)=O)C(=O)N[C@H](Cc1c[nH]cn1)C(=O)N[C@@H](C(=O)N[C@H](CCCNC(=N)N)C(=O)N[C@H](CC(=O)O)C(=O)N[C@H](C)C(=O)N[C@@H](C(=O)N[C@@H](C(=O)N[C@H](CCC(N)=O)C(=O)N[C@@H](C(=O)N[C@@H](C(=O)NCC(=O)N[C@@H](C(=O)N[C@H](C)C(=O)N[C@H](CCC(N)=O)C(=O)N[C@H](CCC(N)=O)C(=O)N[C@H](C)C(=O)N[C@H](C)C(=O)N[C@H](CC(N)=O)C(=O)N[C@@H](C(=O)N[C@H](C)C(=O)N[C@H](C)C(=O)N[C@@H](C(=O)N[C@H](CC(C)C)C(=O)N[C@H](CCCCN)C(N)=O)[C@H](C)O)C(C)C)C(C)C)[C@H](C)CC)[C@H](C)O)[C@H](C)CC)[C@H](C)O)[C@H](C)O)C(C)C)[C@H](C)CC	Pseudomonas aeruginosa	broth microdilution	ATCC 27853, CAMHB			MIC	> 1020 µg/mL
CC[C@H](C)[C@@H]([C@@H](CC(=O)N1CCC[C@H]1[C@H](OC)[C@@H](C)C(=O)N[C@H](C)[C@@H](O)c1ccccc1)OC)N(C)C(=O)[C@@H](NC(=O)[C@H](C(C)C)N(C)C(=O)OCc1ccc(NC(=O)[C@H](CCCNC(N)=O)NC(=O)[C@@H](NC(=O)CCCC(=O)NCCC(=O)N(C)CC(=O)N(C)CC(=O)N(C)CC(=O)N(C)CC(=O)N(C)CC(=O)N(C)CC(=O)N(C)CC(=O)N(C)CC(=O)N(C)CC(=O)N(C)CC(=O)N[C@H]2CSCCC(=O)N3CN4CN(C3)C(=O)CCSC[C@H](NC(=O)[C@@H](CC(=O)O)NC(=O)[C@H](Cc3cccc5ccccc35)NC(=O)[C@@H]3CCCN3C2=O)C(=O)N[C@@H](CCSC)C(=O)N[C@@H](CCCCNC(=N)N)C(=O)N[C@@H](CC(=O)O)C(=O)N[C@@H](Cc2c[nH]c3ccccc23)C(=O)N[C@@H](CO)C(=O)N[C@@H]([C@@H](C)O)C(=O)N2CCC[C@H]2C(=O)N2C[C@H](O)C[C@H]2C(=O)N[C@@H](Cc2c[nH]c3ccccc23)C(=O)N[C@H](C(N)=O)CSCCC4=O)C(C)C)cc1)C(C)C			mouse, plasma	intravenous, 3 mg/kg		half-life	~1 h
C=C(C)C[C@H](OC)[C@H](O)C(=O)N[C@@H](OC)[C@@H]1CC(=O)C(C)(C)[C@@H](C[C@H](O)[C@@H](C)[C@H]2Cc3c(C)c(O)cc(O)c3C(=O)O2)O1	H522-T1	cell growth or viability				IC50	0.8 nM
Nc1ncnc2c1ncn2C1CCC(OC(C(=O)O)P(=O)(O)O)C1 (racemic)	HIV-1 reverse transcriptase K70Q	enzyme activity, inhibitor		added: poly(rU)·oligo(dA), [3H]dATP	relative to: mutant over wild type	fold resistance	3.7 fold
COc1ccccc1CNC(=O)CSc1c[nH]c2ccccc12	HEK293T	Gaussia luciferase expression		up to 10 µM, 24 h, without RdRp		reporter expression	no effect
CC1(C)SSC(C)(C)[C@@H](NC(=O)[C@@H](N)Cc2ccc(O)cc2)C(=O)NCC(=O)N[C@@H](Cc2ccccc2)C(=O)N[C@H]1C(=O)O		[3H]deltorphin II uptake, inhibitor	rabbit, cells	15 min, NaCl-containing medium		IC50	99200 ± 32500 nM

Excerpt of the above:
SMILES	target or system	test	test system	conditions	scale	quantity	result
CC(C)C[C@H](NC(=O)[C@H](CO[C@@H]1O[C@H](CO)[C@@H](O[C@@H]2O[C@H](CO)[C@H](O)[C@H](O)[C@H]2O)[C@H](O)[C@H]1O)NC(=O)[C@H](CCCCN)NC(=O)[C@H](CC(C)C)NC(=O)C(C)(C)NC(=O)[C@H](CCCCN)NC(=O)[C@H](CCC(=O)O)NC(=O)[C@H](C)NC(=O)[C@H](CC(C)C)NC(=O)[C@H](CC(N)=O)NC(=O)[C@@H]1CCCN1C(=O)[C@H](CC(C)C)NC(=O)[C@H](Cc1ccccc1)NC(=O)CNC(=O)[C@H](NC(=O)[C@@H](N)Cc1ccc(O)cc1)[C@H](C)O)C(N)=O	OPRK1	ligand displacement, radioligand		pH 7.5, cell membranes		Ki	5.7 nM
CC(C)C[C@H](NC(=O)[C@H](CO[C@@H]1O[C@H](CO)[C@@H](O[C@@H]2O[C@H](CO)[C@H](O)[C@H](O)[C@H]2O)[C@H](O)[C@H]1O)NC(=O)[C@H](CCCCN)NC(=O)[C@H](CC(C)C)NC(=O)[C@H](C)NC(=O)[C@H](CCCCN)NC(=O)[C@H](CCC(=O)O)NC(=O)[C@H](C)NC(=O)[C@H](CC(C)C)NC(=O)[C@H](CC(N)=O)NC(=O)[C@@H]1CCCN1C(=O)[C@H](CC(C)C)NC(=O)[C@H](Cc1ccccc1)NC(=O)CNC(=O)[C@H](NC(=O)[C@@H](N)Cc1ccc(O)cc1)[C@H](C)O)C(N)=O	OPRK1	ligand displacement, radioligand		pH 7.5, cell membranes		Ki	15 nM
